Measurements from different studies.
Each numbered part is a random draw from the data of one study; scales do not carry over between parts. Several values in a cell are separate wells, animals, samples, runs or records. Substitutions count along the parent as printed.
Chain of UniProt Q8WXR4 (whole entry, looked up): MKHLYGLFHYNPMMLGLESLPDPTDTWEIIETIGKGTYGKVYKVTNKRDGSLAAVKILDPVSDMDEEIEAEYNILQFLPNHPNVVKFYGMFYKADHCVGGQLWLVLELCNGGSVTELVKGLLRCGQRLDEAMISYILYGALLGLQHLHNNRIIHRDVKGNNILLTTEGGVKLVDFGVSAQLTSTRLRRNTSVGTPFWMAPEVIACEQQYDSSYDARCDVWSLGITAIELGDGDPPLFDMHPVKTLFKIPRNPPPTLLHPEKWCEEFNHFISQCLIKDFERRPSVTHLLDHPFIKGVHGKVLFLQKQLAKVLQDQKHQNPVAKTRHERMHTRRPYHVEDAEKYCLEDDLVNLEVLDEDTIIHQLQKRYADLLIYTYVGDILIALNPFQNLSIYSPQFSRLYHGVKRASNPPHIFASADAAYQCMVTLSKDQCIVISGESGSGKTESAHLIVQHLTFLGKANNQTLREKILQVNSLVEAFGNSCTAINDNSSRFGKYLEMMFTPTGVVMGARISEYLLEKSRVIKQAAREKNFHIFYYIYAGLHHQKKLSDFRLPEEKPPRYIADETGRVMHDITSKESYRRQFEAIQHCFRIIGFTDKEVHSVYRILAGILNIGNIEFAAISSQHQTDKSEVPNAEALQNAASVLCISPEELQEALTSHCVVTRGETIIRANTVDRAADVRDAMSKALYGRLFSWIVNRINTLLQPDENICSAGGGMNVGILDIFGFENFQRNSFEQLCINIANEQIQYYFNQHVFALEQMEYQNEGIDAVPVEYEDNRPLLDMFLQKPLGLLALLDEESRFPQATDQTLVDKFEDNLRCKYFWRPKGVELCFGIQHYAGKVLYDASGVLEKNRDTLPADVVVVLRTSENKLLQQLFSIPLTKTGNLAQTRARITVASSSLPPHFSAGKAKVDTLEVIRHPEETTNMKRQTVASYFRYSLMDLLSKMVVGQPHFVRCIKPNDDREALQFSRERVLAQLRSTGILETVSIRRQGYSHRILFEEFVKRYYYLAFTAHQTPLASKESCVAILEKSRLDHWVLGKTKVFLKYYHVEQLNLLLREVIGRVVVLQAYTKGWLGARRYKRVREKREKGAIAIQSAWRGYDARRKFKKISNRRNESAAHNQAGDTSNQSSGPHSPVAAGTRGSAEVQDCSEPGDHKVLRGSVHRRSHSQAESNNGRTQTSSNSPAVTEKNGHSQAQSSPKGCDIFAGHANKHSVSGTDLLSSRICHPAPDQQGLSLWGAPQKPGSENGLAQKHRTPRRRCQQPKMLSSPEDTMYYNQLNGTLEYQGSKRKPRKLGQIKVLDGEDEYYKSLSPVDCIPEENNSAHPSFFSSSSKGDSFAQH
Chain of UniProt Q13464 (whole entry, looked up): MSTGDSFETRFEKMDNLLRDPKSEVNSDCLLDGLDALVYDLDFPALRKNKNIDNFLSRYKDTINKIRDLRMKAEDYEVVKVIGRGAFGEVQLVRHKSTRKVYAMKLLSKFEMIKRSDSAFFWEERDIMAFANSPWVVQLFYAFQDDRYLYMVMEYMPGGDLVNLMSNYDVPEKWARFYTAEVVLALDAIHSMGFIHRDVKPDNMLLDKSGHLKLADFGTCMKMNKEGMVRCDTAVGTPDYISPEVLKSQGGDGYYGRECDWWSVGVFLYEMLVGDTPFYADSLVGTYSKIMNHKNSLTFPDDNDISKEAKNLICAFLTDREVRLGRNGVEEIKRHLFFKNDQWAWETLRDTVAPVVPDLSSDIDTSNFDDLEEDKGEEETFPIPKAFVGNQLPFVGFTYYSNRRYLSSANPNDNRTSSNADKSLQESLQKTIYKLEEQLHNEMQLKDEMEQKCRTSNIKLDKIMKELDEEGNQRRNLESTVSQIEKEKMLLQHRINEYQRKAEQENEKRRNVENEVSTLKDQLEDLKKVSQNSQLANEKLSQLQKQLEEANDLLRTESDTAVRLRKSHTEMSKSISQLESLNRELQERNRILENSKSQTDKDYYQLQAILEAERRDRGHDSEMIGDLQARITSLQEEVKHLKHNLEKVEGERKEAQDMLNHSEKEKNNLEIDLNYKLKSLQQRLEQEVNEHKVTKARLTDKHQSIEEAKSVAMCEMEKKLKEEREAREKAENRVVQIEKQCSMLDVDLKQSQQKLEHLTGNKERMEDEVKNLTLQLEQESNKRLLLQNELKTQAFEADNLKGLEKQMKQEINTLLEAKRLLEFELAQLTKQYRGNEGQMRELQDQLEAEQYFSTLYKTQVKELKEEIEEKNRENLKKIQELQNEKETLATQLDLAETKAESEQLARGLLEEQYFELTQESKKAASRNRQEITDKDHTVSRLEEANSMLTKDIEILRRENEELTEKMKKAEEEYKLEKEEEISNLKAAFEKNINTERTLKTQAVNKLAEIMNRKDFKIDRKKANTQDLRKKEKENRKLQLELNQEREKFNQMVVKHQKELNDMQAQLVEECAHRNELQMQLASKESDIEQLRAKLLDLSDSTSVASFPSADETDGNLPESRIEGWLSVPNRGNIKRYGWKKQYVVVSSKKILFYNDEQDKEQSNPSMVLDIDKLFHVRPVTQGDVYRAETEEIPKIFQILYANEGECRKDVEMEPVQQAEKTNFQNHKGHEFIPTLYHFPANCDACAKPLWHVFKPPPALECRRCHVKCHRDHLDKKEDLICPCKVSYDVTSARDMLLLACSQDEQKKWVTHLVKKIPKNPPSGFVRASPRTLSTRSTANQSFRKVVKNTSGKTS
Chain of UniProt Q13237 (whole entry, looked up): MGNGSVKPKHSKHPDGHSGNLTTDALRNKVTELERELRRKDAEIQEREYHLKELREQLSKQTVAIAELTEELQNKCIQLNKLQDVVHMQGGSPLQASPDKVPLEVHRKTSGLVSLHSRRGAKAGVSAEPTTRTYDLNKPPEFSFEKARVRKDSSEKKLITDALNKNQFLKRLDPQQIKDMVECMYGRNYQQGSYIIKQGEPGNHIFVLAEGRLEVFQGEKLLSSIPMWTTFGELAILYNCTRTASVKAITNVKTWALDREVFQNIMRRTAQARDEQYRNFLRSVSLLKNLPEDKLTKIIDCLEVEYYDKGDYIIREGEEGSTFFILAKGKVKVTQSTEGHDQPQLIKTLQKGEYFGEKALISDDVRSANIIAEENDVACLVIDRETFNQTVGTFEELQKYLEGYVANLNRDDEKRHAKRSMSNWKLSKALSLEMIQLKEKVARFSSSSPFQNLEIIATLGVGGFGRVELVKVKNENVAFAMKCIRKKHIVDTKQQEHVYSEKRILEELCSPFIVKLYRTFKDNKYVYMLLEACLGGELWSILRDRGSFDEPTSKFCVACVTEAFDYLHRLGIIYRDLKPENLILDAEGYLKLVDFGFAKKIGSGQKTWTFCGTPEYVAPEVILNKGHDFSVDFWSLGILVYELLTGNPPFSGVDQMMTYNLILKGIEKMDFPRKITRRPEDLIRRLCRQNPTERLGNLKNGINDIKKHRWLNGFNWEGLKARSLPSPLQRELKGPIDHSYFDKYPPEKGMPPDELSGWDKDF
Chain of UniProt Q9HAZ1 (whole entry, looked up): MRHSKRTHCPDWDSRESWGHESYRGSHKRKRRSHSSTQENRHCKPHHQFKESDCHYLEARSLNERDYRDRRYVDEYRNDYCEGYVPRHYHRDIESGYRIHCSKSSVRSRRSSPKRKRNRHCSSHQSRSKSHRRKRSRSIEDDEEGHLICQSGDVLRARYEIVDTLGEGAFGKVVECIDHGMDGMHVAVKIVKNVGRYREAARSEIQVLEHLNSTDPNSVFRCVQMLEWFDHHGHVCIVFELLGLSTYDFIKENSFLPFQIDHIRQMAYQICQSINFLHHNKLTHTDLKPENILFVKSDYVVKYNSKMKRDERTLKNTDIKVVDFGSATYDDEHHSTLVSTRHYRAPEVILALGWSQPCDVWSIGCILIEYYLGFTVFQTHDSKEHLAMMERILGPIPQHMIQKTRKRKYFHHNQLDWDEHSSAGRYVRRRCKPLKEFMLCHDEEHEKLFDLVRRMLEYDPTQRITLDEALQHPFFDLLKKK
Chain of UniProt Q16539 (whole entry, looked up): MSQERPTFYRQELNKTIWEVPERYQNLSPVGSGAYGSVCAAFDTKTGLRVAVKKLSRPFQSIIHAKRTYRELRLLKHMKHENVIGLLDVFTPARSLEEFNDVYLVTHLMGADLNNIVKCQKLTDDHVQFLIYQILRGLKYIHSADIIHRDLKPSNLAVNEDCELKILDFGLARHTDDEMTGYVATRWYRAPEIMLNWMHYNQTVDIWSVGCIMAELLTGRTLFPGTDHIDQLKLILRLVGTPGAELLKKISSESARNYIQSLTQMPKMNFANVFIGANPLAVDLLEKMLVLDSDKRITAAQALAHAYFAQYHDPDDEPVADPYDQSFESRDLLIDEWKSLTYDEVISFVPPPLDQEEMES
Chain of UniProt Q16566 (whole entry, looked up): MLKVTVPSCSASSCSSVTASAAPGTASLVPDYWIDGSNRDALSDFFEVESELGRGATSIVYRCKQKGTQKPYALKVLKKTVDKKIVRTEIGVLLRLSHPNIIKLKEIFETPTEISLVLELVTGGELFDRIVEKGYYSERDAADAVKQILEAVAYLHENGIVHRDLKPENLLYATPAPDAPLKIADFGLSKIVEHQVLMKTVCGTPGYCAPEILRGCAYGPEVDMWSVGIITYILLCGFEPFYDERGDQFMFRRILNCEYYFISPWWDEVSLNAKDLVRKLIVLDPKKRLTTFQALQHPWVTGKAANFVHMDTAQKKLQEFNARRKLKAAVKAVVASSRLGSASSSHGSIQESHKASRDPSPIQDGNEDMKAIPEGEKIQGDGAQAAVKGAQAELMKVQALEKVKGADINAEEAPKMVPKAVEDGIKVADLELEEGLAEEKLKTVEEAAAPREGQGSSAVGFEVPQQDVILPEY

Series 1
Target: Probable WRKY transcription factor 50, DNA-binding domain (WRKY50, Arabidopsis thaliana, UniProt Q8VWQ5, residues 99-173)
Technique: DNA-protein interaction ELISA
Molecule type: double-stranded DNA, one strand shown
Medium: in vitro, bacterial lysate
Tested at: not given
Notes: whole dsDNA probe, crude lysate protein
Reference: highest signal in screen
Reading: higher = stronger binding
Construct (chain): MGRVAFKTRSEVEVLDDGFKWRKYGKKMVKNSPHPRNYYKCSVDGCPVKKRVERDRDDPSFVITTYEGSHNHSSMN
| Strand | relative absorbance |
| --- | --- |
| AAAAAAATTCGCAACCCTCACGTTCGAAAA | 16.9 % of maximum |
| AAAAAAAAGAGCCTGGGGGTTCGCATAAAA | 14.9 % of maximum |
| AAAAAATTTCTCCTTCTTTGTTCTTCAAAA | 66.2 % of maximum |
| AAAAAAAGGTTTGGGCTTCACGTTATAAAA | 27.7 % of maximum |
| AAAAAACGTTAACACTGATTTAGGGTAAAA | 12.5 % of maximum |
| AAAAAAAGGTCATTGCTGCTGGTGTTAAAA | 63.4 % of maximum |
| AAAAAATGAATCAATTTTTGGGCTTTAAAA | 17.2 % of maximum |
| AAAAAATTTGCGCTTCATCCTGCCCCAAAA | 29.9 % of maximum |

Series 2
Compound: NC(=O)c1ccc(N(C(N)=O)c2c(F)cccc2F)nc1-c1ccc(F)cc1F
Effect on: enzyme activity
Mode: inhibitor
Tested at: 0.5 µM
Reference: control
| target | remaining activity |
| --- | --- |
| CLK4 (Homo sapiens, UniProt Q9HAZ1) | 114% |
| MAPK14 (Homo sapiens, UniProt Q16539) | 5.23% |
| CAMK4 (Homo sapiens, UniProt Q16566) | 91.9% |
| MAPK1 (Homo sapiens, UniProt P28482) | 85.7% |
| NEK3 (Homo sapiens, UniProt P51956) | 96% |
| ROCK1 (Homo sapiens, UniProt Q13464) | 108% |
| Myosin-IIIb (MYO3B, Homo sapiens, UniProt Q8WXR4) | 99.2% |
| MAPK11 (Homo sapiens, UniProt Q15759) | 22.3% |
| MARK4 (Homo sapiens, UniProt Q96L34) | 102% |
| MINK1 (Homo sapiens, UniProt Q8N4C8) | 100% |
| CDC42BPB (Homo sapiens, UniProt Q9Y5S2) | 96.5% |
| PRKG2 (Homo sapiens, UniProt Q13237) | 98.1% |
| TLK2 (Homo sapiens, UniProt Q86UE8) | 95.7% |
| MAP2K1 (Homo sapiens, UniProt Q02750) | 89% |

Series 3
Target: CCNF, cyclin fold, Cln2 fusion (human)
Technique: yeast growth competition, sequencing
Medium: yeast
Notes: weak parent motif
Reference: not given
Reading: higher = stronger binding
Parent: PKN2 docking peptide (human); VSAVQKLDFSDTM
| Change | normalised enrichment score |
| --- | --- |
| VSAHQKLDFSDTM [V4H] | -0.686 |
| VSAVQKLDISDTM [F9I] | -0.528 |
| VGAVQKLDFSDTM [S2G] | 0.137 |
| YSAVQKLDFSDTM [V1Y] | 1.71 |
| VSGVQKLDFSDTM [A3G] | -0.587 |
| VSATQKLDFSDTM [V4T] | -0.499 |
| VSKVQKLDFSDTM [A3K] | -0.152 |
| VSAVQKLDFSDTH [M13H] | 0.49 |

Other studies, line by line
| Structure (SMILES) | tested on | test | test system | setting | how to read | measurement | result |
| --- | --- | --- | --- | --- | --- | --- | --- |
| CCC(=O)N[C@H]1CC[C@@H](C(=O)N(C)c2ccc(-c3nc4ccccc4o3)cc2)C1 | MAPK3 (Homo sapiens, UniProt P27361) | cell-free assay, competition with immobilised ligand |  | 1 µM |  | remaining binding | 100% |
| CC(C)n1cnc(-c2ccc(F)cc2)c1-c1ncc(C(=O)Nc2ccc(N3CCN(C)CC3)cc2)[nH]1 |  |  | human, idiopathic pulmonary fibrosis | 30 mg once daily, trial, treatment-emergent |  | patients with blurred vision | 0% |
| Cn1cncc1[C@@](O)(COc1ccc(C#N)cc1-c1ccc(OC(F)(F)F)cc1)c1ccc(C#N)cc1 | HEK293T | high-content imaging |  | 10 µM, 0 h |  | cells with healthy nuclei | 52.7% and 68.8% |
| COc1ccc(-c2c(Nc3ccccn3)[nH]c3c(C4=CCCCC4)c(-c4ccccc4)nn3c2=O)cc1 |  | LC-MS/MS | human, plasma | 50 mg once daily |  | AUC(0-inf) observed, dose-normalised | 2090 ng·h/mL/mg |
| CN1CCN(C(=O)C(C)(C)c2ccc(C(=O)Nc3cn4cc(-c5ccncc5)ccc4n3)cc2)CC1 | normal organoid sample H | CellTiter-Glo | human, normal-adjacent epithelium | 1 µM | reference: DMSO | viability | 38.4% |

Some of these lines once more (series 2):
| target | remaining activity |
| --- | --- |
| TLK2 (Homo sapiens, UniProt Q86UE8) | 95.7% |
| CLK4 (Homo sapiens, UniProt Q9HAZ1) | 114% |
| ROCK1 (Homo sapiens, UniProt Q13464) | 108% |
| PRKG2 (Homo sapiens, UniProt Q13237) | 98.1% |
| MAPK1 (Homo sapiens, UniProt P28482) | 85.7% |
